Measured values pooled from the literature.
Each line is one published result; not all experiments were run side by side. Numbers after ± are the reported error.
TYMS: Thymidylate synthase (TYMS, Homo sapiens, UniProt P04818)
UniProt P04818, sequence (whole entry, looked up): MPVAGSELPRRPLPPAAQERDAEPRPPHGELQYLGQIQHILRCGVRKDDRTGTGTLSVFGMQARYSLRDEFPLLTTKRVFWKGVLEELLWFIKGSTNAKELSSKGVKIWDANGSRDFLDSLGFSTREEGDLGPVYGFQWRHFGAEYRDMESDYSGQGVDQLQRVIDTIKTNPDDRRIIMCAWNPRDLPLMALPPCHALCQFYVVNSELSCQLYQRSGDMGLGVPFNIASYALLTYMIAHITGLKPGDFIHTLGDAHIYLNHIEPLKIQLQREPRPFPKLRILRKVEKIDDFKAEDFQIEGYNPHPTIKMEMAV
PARP1: Poly [ADP-ribose] polymerase 1 (PARP1, Homo sapiens, UniProt P09874)
UniProt P09874, sequence (whole entry, looked up): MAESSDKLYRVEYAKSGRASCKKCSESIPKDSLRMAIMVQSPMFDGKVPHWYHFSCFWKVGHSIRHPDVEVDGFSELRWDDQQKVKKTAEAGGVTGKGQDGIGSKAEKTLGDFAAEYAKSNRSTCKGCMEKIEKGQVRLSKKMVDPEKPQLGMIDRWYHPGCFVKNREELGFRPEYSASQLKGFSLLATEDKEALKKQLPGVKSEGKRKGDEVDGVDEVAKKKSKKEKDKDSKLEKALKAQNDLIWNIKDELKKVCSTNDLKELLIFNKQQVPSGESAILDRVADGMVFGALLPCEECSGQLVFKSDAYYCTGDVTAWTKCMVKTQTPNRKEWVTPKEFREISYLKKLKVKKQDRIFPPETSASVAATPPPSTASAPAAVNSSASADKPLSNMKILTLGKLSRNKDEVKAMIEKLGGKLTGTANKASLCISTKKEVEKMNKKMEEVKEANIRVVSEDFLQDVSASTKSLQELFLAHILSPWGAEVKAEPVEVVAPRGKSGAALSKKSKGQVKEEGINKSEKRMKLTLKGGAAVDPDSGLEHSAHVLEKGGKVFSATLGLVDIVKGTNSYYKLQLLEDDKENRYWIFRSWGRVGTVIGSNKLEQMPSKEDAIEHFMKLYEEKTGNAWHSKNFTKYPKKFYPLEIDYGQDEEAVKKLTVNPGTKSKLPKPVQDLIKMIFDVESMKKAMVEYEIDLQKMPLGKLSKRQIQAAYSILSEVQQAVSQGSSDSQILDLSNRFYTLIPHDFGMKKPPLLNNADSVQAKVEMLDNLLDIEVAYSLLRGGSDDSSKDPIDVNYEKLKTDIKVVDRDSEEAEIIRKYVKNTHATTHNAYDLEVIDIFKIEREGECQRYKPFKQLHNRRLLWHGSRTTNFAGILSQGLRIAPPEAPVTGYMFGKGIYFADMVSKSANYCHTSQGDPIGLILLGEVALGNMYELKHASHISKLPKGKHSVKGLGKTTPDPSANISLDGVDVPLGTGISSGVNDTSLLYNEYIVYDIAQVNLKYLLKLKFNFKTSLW
TGFBR1: TGF-beta receptor type-1 (TGFBR1, Homo sapiens, UniProt P36897)
UniProt P36897, sequence (whole entry, looked up): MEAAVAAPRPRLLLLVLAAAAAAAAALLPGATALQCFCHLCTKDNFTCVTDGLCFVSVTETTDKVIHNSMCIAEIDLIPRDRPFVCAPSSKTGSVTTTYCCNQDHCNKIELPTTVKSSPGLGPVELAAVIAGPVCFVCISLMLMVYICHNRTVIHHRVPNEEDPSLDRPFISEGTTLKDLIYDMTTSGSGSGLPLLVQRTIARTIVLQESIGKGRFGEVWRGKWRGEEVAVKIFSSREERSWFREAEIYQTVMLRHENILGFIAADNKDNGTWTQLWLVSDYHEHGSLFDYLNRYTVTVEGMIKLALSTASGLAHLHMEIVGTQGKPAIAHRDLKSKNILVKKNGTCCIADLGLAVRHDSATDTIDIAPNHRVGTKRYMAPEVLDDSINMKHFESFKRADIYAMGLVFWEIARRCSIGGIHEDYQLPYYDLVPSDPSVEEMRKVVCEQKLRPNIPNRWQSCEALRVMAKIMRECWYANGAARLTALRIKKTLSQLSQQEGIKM
Protein lin-28 homolog A: Protein lin-28 homolog A (Mus musculus, UniProt Q8K3Y3)
UniProt Q8K3Y3, sequence (whole entry, looked up): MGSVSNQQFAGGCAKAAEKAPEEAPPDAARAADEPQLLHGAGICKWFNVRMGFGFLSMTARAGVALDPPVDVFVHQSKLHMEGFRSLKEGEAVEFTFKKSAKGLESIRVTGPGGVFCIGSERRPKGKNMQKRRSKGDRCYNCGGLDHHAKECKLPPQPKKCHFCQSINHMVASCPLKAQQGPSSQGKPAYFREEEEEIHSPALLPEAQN
UniProt P51451, sequence (whole entry, looked up): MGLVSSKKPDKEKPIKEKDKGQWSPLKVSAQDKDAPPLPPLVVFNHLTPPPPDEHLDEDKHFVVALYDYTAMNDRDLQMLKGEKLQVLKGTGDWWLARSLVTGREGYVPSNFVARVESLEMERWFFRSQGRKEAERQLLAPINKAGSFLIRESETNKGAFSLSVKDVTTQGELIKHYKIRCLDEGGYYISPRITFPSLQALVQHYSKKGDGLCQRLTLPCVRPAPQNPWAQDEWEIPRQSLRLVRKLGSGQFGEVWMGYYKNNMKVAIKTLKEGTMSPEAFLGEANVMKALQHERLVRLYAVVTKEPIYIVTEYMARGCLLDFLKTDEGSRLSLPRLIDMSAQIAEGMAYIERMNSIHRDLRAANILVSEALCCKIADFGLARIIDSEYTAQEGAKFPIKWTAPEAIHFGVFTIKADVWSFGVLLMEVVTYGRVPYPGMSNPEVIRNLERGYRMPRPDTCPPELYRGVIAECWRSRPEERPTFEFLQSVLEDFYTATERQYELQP
UniProt P23439, sequence (whole entry, looked up): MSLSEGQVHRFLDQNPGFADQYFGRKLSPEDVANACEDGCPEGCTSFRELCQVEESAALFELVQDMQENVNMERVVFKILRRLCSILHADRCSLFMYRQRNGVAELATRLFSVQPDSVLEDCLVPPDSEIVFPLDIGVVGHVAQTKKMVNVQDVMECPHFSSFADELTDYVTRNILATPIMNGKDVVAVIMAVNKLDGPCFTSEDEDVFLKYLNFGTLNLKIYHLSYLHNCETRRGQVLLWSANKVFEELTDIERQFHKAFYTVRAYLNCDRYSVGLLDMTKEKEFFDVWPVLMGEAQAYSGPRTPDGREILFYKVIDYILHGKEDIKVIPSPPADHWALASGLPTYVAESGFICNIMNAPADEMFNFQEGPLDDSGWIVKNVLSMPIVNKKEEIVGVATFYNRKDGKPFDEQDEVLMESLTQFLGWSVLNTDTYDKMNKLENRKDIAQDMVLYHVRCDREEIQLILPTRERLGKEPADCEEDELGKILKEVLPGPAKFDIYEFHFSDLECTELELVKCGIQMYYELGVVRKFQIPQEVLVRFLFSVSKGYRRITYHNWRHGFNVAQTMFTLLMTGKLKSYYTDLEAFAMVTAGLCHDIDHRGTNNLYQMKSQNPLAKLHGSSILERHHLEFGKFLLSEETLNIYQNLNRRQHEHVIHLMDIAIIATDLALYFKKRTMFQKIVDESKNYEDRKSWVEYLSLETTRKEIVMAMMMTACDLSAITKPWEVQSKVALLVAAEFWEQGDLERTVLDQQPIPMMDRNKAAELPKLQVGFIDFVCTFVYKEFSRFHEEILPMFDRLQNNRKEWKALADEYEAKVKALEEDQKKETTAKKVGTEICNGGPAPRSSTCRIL
UniProt Q96D96, sequence (whole entry, unmodified, looked up): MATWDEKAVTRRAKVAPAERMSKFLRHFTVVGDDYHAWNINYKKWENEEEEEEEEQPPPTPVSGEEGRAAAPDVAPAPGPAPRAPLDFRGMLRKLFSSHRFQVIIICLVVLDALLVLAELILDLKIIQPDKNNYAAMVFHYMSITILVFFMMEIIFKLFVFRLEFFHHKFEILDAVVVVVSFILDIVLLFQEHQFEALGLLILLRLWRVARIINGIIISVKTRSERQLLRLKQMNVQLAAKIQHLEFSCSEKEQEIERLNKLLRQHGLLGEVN
UniProt P15328, sequence (whole entry, looked up): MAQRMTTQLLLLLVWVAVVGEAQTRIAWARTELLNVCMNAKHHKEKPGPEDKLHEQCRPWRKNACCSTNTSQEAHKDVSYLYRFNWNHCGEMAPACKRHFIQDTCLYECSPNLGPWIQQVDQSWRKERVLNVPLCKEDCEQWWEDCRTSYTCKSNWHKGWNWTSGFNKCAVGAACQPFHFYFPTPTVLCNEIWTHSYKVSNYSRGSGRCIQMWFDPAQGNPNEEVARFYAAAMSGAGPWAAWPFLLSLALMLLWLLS
UniProt P03951, sequence (whole entry, looked up): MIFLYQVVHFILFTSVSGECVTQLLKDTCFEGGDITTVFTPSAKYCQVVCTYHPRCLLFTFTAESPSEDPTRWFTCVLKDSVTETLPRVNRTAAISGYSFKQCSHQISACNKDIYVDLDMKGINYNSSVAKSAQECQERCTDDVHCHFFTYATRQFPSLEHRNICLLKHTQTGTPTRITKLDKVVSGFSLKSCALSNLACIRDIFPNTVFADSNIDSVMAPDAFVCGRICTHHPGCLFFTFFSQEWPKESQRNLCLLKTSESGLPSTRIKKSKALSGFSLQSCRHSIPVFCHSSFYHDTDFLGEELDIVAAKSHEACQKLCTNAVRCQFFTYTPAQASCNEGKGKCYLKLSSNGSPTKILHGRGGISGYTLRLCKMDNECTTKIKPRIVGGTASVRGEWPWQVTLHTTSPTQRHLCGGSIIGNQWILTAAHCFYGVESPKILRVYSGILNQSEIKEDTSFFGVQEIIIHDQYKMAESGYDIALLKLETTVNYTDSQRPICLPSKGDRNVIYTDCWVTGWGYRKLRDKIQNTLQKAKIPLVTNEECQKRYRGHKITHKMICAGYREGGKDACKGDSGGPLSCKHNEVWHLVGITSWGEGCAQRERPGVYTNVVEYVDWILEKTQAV

SMILES	target	test	test system	conditions	IC50
O=c1nc(SCc2cc(F)cc(C(F)(F)F)c2)nc(SCc2ccc3nc(Cl)ccc3c2)[nH]1	TOP2A (Homo sapiens, UniProt P11388)	ATPase activity, inhibitor, competitive ATPase		with: 0.5 mM ATP	26100 nM
CC#CC(=O)N[C@H]1CCCN(c2c(F)cc(C(N)=O)c3[nH]c(C)c(C)c23)C1	JAK2 (Homo sapiens, UniProt O60674)				> 5000 nM
C=CC(=O)Nc1cccc(CN(C(=O)Nc2cccc(C(F)(F)F)c2)C2CCN(C(C)CCC)CC2)c1 (stereo not drawn)	DCN1-like protein 1, PONY domain (Homo sapiens, UniProt Q96GG9)	binding, inhibitor, TR-FRET		24 h, racemic mixture	98 ± 40 nM
COc1ccc(CNC(=O)c2ccc(CNCc3cnc4nc(N)nc(N)c4n3)cc2)cc1OC	TYMS	inhibitor			> 100000 nM
Cn1cc2c(C(=O)O)ccc(NS(=O)(=O)c3ccc(OCC4CCC4)c(Cl)c3)c2n1	PDE6A/PDE6B (Bos taurus, UniProt P11541+P23439)	antagonist		bovine target	> 200000 nM
[Cl-].[Cl-].[Zn+2]	HVCN1 (Homo sapiens, UniProt Q96D96, E119H)	whole-cell voltage clamp		100 mV, open probability 0.55	610 nM
Cc1cnc(-c2ccc(-c3ccc(NC(=O)Nc4c(F)cc(F)cc4F)cc3F)c3c2C(=O)NC3)[nH]1	TEK (Homo sapiens, UniProt Q02763)	enzyme activity, inhibitor, mobility shift		with: ATP 1 mM	4.6 nM
CCCC(C)N1CCC(N(Cc2ccccc2NC(=O)CC)C(=O)Nc2cccc(C(F)(F)F)c2)CC1 (stereo not drawn)	DCN1-like protein 1 (Homo sapiens, UniProt Q96GG9)	inhibitor, pulse-chase		preincubation 24 h	382 ± 51 nM
NC(=O)c1cccc2c1O/C(=C\c1ccc(C(=O)NCC3CNC3)s1)C2=O	PARP1	inhibitor			74 nM
Nc1nc(N)c2nc(CNc3ccc(C(=O)c4ccccc4)cc3)cnc2n1	TYMS	inhibitor			> 100000 nM
Cc1cccc(-c2nc(-c3ccc(/C(N)=N/O)cc3)[nH]c2-c2ccncc2)c1	TGFBR1	binding, LanthaScreen kinase binding			377 ± 7.2 nM
Cn1c(SCc2ccccc2Cl)nc(=O)c2c1NC(=O)CC2c1ccc2c(c1)OCCO2 (stereo not drawn)	Protein lin-28 homolog A				10500 nM
CN1CCN(c2ccc(Nc3ncc4cc(C#N)c(=O)n(C5CCCC5)c4n3)cc2)CC1	MAP3K2 (Homo sapiens, UniProt Q9Y2U5)				2530 nM
C[C@@H]1CCO[C@H]2Cn3cc(C(=O)NCc4ccc(F)cc4F)c(=O)c(O)c3C(=O)N12	FOLR1 (Homo sapiens, UniProt P15328)	folate binding, antagonist, competition		allosteric, partial	~4400 nM
NC(=O)c1cccc2c1O/C(=C\c1ccc(C(=O)O)s1)C2=O	PARP1	inhibitor			20 nM
Fc1ccc(-c2nc(C3CCCCC3)[nH]c2-c2ccncc2)cc1	TGFBR1	binding, LanthaScreen kinase binding			251 ± 35.3 nM
COc1cc2c(c(OC)c1OC)-c1c(cc(OC)c(OC)c1OC)C[C@H](C)[C@H](C)C2	CYP3A, rat	poziotinib metabolism to M1, inhibitor	rat liver microsomes, 0.3 mg/mL	30 min, with: poziotinib 5 µM	30700 nM
N=C(N)SCc1ccccc1Cl	Protein lin-28 homolog A				11200 nM
Cc1cnc(-c2ccc(-c3ccc(NC(=O)Nc4c(F)cc(F)cc4F)cc3F)c3c2C(=O)NC3)[nH]1	BLK (Homo sapiens, UniProt P51451)	kinase activity, inhibitor, cell-free		90 min, 28 °C, with: ATP	0.74 nM
Cc1cccc(-c2nc(C(O)C3=CCCCC3)[nH]c2-c2ccncc2)c1 (stereo not drawn)	TGFBR1	binding, LanthaScreen kinase binding			549 ± 48.6 nM
CCOc1ccnc(CNC(=O)c2cn(Cc3ccc(Cn4ccccc4=O)cc3)nc2COC)c1F	F11 (Homo sapiens, UniProt P03951)				> 40000 nM
